Assay results from different studies.
Compare with care: the assays were run in different laboratories. Values joined by “and” are separate records of one study, mostly repeats; a detail may differ. Numbers after ± are the reported error.
Sequence of UniProt A5GZW8 (whole entry, looked up): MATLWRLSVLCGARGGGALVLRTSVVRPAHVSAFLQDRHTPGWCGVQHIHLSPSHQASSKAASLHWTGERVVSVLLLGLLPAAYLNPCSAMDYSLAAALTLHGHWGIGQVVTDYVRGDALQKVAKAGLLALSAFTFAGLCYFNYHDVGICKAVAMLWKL
Sequence of UniProt D0VWV4 (whole entry, looked up): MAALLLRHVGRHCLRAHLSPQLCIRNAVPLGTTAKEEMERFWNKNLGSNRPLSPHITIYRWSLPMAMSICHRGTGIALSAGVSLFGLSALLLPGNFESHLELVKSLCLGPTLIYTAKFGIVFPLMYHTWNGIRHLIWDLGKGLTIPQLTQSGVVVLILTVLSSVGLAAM
Sequence of UniProt Q007T0 (whole entry, looked up): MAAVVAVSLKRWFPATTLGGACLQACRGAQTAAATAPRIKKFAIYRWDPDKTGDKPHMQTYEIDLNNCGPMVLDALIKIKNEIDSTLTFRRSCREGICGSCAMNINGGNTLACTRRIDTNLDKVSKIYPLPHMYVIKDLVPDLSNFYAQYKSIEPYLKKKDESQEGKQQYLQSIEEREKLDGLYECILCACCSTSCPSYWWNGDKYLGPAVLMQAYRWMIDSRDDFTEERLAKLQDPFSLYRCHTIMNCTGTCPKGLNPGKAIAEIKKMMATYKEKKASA
Sequence of UniProt P06276 (whole entry, looked up): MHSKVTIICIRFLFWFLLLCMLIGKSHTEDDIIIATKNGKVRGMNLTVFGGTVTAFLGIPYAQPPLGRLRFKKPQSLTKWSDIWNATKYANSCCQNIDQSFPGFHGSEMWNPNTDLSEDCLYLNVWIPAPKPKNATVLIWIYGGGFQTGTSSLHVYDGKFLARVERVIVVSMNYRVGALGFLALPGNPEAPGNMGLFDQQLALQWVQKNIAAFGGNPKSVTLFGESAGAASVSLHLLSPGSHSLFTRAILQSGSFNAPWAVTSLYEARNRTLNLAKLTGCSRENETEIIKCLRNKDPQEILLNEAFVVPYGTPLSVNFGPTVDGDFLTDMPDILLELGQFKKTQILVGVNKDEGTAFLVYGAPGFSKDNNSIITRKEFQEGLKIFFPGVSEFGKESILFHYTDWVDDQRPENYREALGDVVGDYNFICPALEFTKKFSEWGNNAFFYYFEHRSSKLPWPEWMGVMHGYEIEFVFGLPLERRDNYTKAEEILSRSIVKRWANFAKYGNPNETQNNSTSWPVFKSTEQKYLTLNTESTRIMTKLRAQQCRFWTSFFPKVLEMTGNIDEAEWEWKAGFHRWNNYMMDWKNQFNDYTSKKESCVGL
Sequence of UniProt P81908 (whole entry, looked up): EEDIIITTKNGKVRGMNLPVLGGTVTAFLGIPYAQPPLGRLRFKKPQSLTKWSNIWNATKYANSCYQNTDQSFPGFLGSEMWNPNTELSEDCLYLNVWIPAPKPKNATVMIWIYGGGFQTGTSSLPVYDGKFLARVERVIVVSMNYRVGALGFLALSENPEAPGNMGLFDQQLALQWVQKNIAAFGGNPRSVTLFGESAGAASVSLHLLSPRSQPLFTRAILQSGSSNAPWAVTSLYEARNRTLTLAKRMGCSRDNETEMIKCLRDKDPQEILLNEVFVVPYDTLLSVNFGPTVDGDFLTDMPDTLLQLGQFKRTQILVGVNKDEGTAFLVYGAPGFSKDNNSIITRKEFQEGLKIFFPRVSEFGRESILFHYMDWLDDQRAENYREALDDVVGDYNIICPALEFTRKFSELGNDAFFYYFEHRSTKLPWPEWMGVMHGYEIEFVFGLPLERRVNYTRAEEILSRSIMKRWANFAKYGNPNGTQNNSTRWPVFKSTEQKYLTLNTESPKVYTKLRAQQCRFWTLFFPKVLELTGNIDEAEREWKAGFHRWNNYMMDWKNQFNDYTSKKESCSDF
Sequence of UniProt P35462 (whole entry, looked up): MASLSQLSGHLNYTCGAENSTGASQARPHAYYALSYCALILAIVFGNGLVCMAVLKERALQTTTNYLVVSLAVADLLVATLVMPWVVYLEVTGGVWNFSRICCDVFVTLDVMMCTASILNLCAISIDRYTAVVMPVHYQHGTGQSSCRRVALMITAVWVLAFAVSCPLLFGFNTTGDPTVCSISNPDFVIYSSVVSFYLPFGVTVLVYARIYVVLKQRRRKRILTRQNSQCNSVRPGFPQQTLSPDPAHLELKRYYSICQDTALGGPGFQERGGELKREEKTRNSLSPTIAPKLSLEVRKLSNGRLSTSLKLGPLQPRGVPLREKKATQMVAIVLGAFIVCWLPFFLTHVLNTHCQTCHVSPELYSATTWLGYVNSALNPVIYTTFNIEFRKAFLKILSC
Sequence of UniProt O43704 (whole entry, looked up): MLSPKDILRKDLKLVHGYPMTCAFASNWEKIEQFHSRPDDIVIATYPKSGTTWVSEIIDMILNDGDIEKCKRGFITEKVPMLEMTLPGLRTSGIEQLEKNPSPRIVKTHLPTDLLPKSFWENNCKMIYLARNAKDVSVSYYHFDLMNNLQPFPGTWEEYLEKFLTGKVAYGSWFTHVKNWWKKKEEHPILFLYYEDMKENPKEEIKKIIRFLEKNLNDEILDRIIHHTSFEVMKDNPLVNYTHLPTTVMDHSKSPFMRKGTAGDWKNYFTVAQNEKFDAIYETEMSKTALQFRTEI
Sequence of UniProt Q9Y2H1 (whole entry, looked up): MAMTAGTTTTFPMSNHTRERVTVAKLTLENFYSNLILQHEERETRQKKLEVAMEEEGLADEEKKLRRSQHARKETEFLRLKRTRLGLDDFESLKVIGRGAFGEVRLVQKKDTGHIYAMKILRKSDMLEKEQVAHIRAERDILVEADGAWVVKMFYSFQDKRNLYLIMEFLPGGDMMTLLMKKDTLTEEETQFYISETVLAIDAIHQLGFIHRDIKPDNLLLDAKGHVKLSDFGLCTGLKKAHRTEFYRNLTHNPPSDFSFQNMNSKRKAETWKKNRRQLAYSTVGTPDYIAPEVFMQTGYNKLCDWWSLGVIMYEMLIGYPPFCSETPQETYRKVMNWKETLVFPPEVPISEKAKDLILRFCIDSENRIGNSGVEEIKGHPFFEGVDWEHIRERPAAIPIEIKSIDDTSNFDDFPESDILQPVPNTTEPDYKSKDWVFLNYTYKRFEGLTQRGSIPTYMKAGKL
Sequence of UniProt P35367 (whole entry, looked up): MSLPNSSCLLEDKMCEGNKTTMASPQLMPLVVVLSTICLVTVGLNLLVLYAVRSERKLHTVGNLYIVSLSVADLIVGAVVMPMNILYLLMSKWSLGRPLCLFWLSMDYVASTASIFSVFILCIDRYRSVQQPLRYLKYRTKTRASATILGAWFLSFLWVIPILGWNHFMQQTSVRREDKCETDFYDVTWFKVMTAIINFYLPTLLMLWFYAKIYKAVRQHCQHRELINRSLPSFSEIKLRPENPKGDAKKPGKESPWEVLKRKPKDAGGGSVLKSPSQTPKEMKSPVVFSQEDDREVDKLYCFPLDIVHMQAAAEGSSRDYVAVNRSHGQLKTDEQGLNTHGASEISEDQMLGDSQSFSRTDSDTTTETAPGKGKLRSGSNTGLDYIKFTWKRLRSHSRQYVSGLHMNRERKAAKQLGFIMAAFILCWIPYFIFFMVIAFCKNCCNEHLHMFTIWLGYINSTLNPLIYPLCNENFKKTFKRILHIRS
Sequence of UniProt O43570 (whole entry, looked up): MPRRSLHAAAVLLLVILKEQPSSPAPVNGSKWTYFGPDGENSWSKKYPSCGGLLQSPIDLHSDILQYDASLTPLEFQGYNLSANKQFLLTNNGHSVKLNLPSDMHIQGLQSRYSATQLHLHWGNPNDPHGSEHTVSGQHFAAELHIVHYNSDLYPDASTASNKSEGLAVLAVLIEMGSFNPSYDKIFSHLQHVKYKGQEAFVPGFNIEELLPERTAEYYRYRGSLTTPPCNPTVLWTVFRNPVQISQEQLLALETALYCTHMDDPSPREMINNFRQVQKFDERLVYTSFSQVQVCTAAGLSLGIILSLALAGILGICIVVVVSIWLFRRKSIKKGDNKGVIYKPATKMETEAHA
Sequence of UniProt P62813 (whole entry, looked up): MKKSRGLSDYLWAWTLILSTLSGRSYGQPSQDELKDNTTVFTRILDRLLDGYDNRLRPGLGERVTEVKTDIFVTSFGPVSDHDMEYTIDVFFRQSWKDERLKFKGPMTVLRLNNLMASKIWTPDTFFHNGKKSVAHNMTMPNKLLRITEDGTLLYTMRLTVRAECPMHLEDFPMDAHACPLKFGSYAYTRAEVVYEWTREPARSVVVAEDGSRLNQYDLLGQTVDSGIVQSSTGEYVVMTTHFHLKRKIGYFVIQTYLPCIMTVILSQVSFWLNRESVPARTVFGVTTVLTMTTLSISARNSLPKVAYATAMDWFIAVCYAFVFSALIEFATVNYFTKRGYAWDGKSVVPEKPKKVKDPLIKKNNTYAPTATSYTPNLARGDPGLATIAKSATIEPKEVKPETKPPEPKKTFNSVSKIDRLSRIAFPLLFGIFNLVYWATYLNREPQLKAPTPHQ
Sequence of UniProt P49682 (whole entry, looked up): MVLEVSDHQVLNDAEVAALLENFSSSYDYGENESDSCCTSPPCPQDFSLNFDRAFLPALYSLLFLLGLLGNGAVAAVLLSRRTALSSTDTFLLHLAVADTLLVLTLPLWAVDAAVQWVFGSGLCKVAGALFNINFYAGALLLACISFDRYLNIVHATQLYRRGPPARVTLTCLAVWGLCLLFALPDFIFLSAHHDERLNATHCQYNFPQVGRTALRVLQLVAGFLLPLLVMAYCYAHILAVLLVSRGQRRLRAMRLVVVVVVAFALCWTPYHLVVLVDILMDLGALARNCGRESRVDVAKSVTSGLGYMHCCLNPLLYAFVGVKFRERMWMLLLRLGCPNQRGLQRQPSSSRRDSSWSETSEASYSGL
Sequence of UniProt P38489 (whole entry, looked up): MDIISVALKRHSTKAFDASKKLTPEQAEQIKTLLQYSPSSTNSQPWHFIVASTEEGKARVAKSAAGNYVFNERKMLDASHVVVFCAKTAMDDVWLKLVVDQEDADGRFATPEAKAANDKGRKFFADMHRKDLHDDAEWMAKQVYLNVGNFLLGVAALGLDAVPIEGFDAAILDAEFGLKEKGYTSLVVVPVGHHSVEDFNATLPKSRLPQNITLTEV

Structure (SMILES)	target	test	test system	setting	scale	endpoint	result
C=C(CN(C(=O)c1c(C(F)F)nn(C)c1F)C1CC1)c1ccc(Cl)cc1Cl	SDHD/SDHC/SDHB (Sus scrofa, UniProt A5GZW8+D0VWV4+Q007T0)	enzyme activity, inhibitor, DCIP reduction	pig	0.1 µM, added: DCIP 190 µM	–	reaction velocity	0.0297 µM/s and 0.0293 µM/s
O=C(c1ccc(Cl)cc1)N1CCN2C(=O)N(OC(=O)N3CCOc4ccccc43)C(=O)C2C1 (stereo not drawn)	Cholinesterase (BCHE, Homo sapiens, UniProt P06276)	enzyme activity, inhibitor, MS-based ABPP	SW-620 conditioned medium	10 µM, 1 h, 37 °C	relative to: compound over DMSO, lower = stronger inhibition	median ratio	1.18
CC(C)[C@@H](O)CC[C@@H](C)[C@H]1CC[C@H]2[C@@H]3CC=C4C[C@@H](O)CC[C@]4(C)[C@H]3CC[C@]12C	Glutamate NMDA receptor; GRIN1/GRIN2B (GRIN1/GRIN2B, Homo sapiens, UniProt Q05586+Q13224, F563A)	positive allosteric modulator, two-electrode voltage clamp	Xenopus oocytes expressing GluN2B-F563A	10 µM, 0.02% cremophor, added: 100 µM glutamate and glycine	relative to: without compound	current response	318 ± 17%
Nc1ncc(-c2nc(N3CCOCC3)nc(N3CCOCC3)n2)c(C(F)F)n1	Serine/threonine-protein kinase 38-like (STK38L, Homo sapiens, UniProt Q9Y2H1)	KINOMEscan	–	10 µM	–	remaining binding	72%
COc1ncccc1-c1cnn2ccc(N3CCN(C(=O)OC(C)C)CC3)nc12	Tyrosine-protein kinase ABL1, non-phosphorylated (ABL1, Homo sapiens, UniProt P00519)	KINOMEscan	–	1 µM	–	remaining binding	67%
COc1cc(N)c(Cl)cc1C(=O)NC1CN2CCC1CC2 (stereo not drawn)	G-protein coupled receptor 61 (GPR61, Homo sapiens, UniProt Q9BZJ8)	β-arrestin recruitment, TANGO luminescence, refers to: GPR61	–	concentration not given	relative to: basal luminescence	log2 fold change	0.344
CN(C)C(=O)Oc1ccc[n+](C)c1	Cholinesterase (BCHE, Homo sapiens, UniProt P06276)	–	–	concentration not given, Triton	–	efficacy	-86.2 ± 16.1%
Nc1ncnc2c1ncn2[C@@H]1O[C@H](COP(=O)(O)OP(=O)(O)NP(=O)(O)O)[C@@H](O)[C@H]1O	Cell cycle histidine kinase CckA, cytoplasmic region (Caulobacter vibrioides, UniProt Q9X688)	isothermal titration calorimetry	Caulobacter crescentus	concentration not given, 12 °C, added: c-di-GMP 100 µM	–	binding enthalpy (ΔH)	-10.5 kJ/mol
Oc1c(Br)cc(Br)cc1Oc1ccc(Br)cc1Br	Sulfotransferase 1B1 (SULT1B1, Homo sapiens, UniProt O43704)	sulfonation, substrate	–	–	–	Vmax/Km	64000 µL/min/mg
CC(=O)c1c(O)c(C)c(O)c(Cc2c(O)c3c(c(C(=O)/C=C/c4ccccc4)c2O)OC(C)(C)C=C3)c1O	Protein-glutamine gamma-glutamyltransferase (TGM2, Homo sapiens, UniProt P21980)	enzyme activity, inhibitor	–	added: Triton X-100 0.02%	–	potency	decreased
CO/N=C(\C(=O)N[C@@H]1C(=O)N2C(C(=O)O)=C(CSc3nc(=O)c(=O)[nH]n3C)CS[C@H]12)c1csc(N)n1	Penicillin-binding protein 1A (pbpA, Streptococcus pneumoniae, UniProt Q8DR59)	inhibitor	–	–	–	kinact/KI	1700 ± 170 M⁻¹ s⁻¹
Nc1ncnc2c1ncn2[C@@H]1O[C@H](COP(=O)(O)OP(=O)(O)NP(=O)(O)O)[C@@H](O)[C@H]1O	N-acetylmannosamine kinase (nanK, Haemophilus influenzae, UniProt Q4QP43, T131V)	binding	–	–	–	ΔH	-7.82 ± 0.962 kJ/mol
COc1cc2nccc(Oc3ccc(NC(=O)c4cc5c(n(-c6ccccc6)c4=O)CCCC5=O)nc3)c2cc1OC	Tyrosine-protein kinase HCK (HCK, Homo sapiens, UniProt P08631)	cell viability, CellTiter-Glo	Ba/F3 expressing recombinant kinase	–	relative to: HCK IC50 over AXL IC50	selectivity ratio	> 100
COc1ccc(N2C(=O)N(c3c(C)cccc3Cl)Cc3cnc(Nc4ccc(C5CCN(C)CC5)cc4OC)nc32)nc1	Serine/threonine-protein kinase pim-3 (PIM3, Homo sapiens, UniProt Q86V86)	kinase activity	–	0.5 µM	–	inhibition	1.69%
O=C(Nc1cccnn1)N1CCC(=Cc2cccc(Oc3ccc(C(F)(F)F)cn3)c2)CC1	Alpha-1B adrenergic receptor (Adra1b, Rattus norvegicus, UniProt P15823)	binding	–	10 µM, added: [3H]prazosin	–	inhibition	8%
CN1CCN(c2cc(-c3ccncc3)c(-c3ccc4ccccc4c3)nn2)CC1	C-X-C chemokine receptor type 3 (CXCR3, Homo sapiens, UniProt P49682)	agonist, FLIPR	–	12.5 µM	–	activation	0.5%
[2H]c1c([2H])c([C@]2([2H])CCCN2C(=O)C(C)(C)Oc2ccc3cn[nH]c3c2)c([2H])c([2H])c1C([2H])([2H])[2H]	Homeodomain-interacting protein kinase 1 (HIPK1, Homo sapiens, UniProt Q86Z02)	KINOMEscan	–	1 µM	relative to: DMSO control	remaining binding	86%
CN(CCN1CCC(OC(=O)Nc2ccccc2-c2ccccc2)CC1)C(=O)c1ccc(CN2CCC(C(N)=O)CC2)cc1	Na+/K+ ATPase	enzyme activity	–	1 µM	–	inhibition	1%
Clc1ccc(Cl)c(-c2ccccc2Cl)c1	Androgen receptor (AR, Homo sapiens, UniProt P10275)	reporter gene, antagonist	–	40 µM, added: DHT 2 nM	relative to: DHT 2 nM	maximum activity	28%
CC[C@H](C)[C@H]1O[C@]2(C=C[C@@H]1C)C[C@@H]1C[C@@H](C/C=C(\C)[C@@H](O[C@H]3C[C@H](OC)[C@@H](O[C@H]4C[C@H](OC)[C@@H](O)[C@H](C)O4)[C@H](C)O3)[C@@H](C)/C=C/C=C3\CO[C@@H]4[C@H](O)C(C)=C[C@@H](C(=O)O1)[C@]34O)O2	GABA-A receptor; alpha-1/beta-2/gamma-2 (Rattus norvegicus, UniProt P18508+P62813+P63138)	membrane potential, agonist, QP-DHM primary screen	HEK293 expressing GABAA	10 µM	direction not given	normalized score	0.722

Structure (SMILES)	target	test	test system	setting	scale	endpoint	result
O=c1c2ccccc2oc2cc(OCCCCc3ccccc3)ccc12	Acetylcholinesterase (ache, Electrophorus electricus, UniProt O42275)	enzyme activity	–	2.91 µM, added: substrate 0.43 mM	higher = faster reaction	reaction velocity	0.0005 a.u.
C[C@H]1CN(c2n[nH]c3nc(N[C@H]4CC[C@H](NS(=O)(=O)CCC(F)(F)F)CC4)ncc23)CCO1	Delta(3,5)-Delta(2,4)-dienoyl-CoA isomerase, mitochondrial (Homo sapiens, UniProt Q13011)	Kinobeads competition, refers to: ECH1	–	0.032 µM, unit not given	relative to: vehicle	remaining binding	1.06
CN(C(=O)n1cnc(-c2ccc[n+]([O-])c2)c1)C1CCCCC1	Orexin receptor type 2 (HCRTR2, Homo sapiens, UniProt O43614)	radioligand binding	–	50 µM	–	inhibition	11%
Cc1[nH]c(C)c(S(=O)(=O)Nc2ccc(S(F)(F)(F)(F)F)cc2)c1C(=O)N1CCC(F)(F)C1	D(3) dopamine receptor (DRD3, Homo sapiens, UniProt P35462)	allosteric modulator, ternary complex model	–	added: pramipexole, [3H]methylspiperone	–	cooperativity factor α	26
COc1cc(/C=C/c2ccc(O)cc2)cc(OC)c1	O-methyltransferase (Sorghum bicolor, UniProt A0A1B6PFV1, W279A)	isothermal titration calorimetry	–	concentration not given, APO	–	binding stoichiometry N	1.11 ± 0.006 sites
CC[C@@H](C)[C@@H](NC(=O)[C@@H](Cc1ccc(O)cc1)NC(=O)[C@H]1CCCN1C(=O)[C@@H](CCCNC(=N)N)NC(=O)[C@H](N)Cc1c[nH]cn1)C(=O)N[C@H](C)C(=O)N[C@H](Cc1c[nH]cn1)C(=O)N[C@H](CCCNC(=N)N)C(=O)N[C@H](CCCCNC(=O)c1cccc(S(=O)(=O)F)c1)C(=O)N[C@H](Cc1ccc(O)cc1)C(=O)N[C@H](CO)C(=O)N[C@H](Cc1ccccc1)C(N)=O	Transferrin receptor protein 1 (Tfrc, Mus musculus, UniProt Q62351)	flow cytometry	DC2.4	24 h, pH 6, replicate 1, unit not given	relative to: 0 h	surface TFRC expression	0.416
CCNC(=O)NCCCOc1cccc(CN2CCCCC2)c1	Cholinesterase (BCHE, Homo sapiens, UniProt P06276)	–	–	concentration not given, Triton	–	efficacy	-59.5 ± 8.35%
CCN(C)C(=O)Oc1ccc(CCC(=O)N2CCc3ccccc3C2)cc1OC	Cholinesterase (BCHE, Equus caballus, UniProt P81908)	Ellman	equine serum BuChE	–	relative to: AChE IC50 over BuChE IC50	selectivity ratio	1.5
COc1cccc(OC)c1C(=O)N[C@@H]1C(=O)N2[C@@H]1SC(C)(C)[C@@H]2C(=O)O	Penicillin-binding protein 2B (Streptococcus pneumoniae, UniProt P0A3M6)	inhibitor	–	–	–	kinact/KI	780 ± 65 M⁻¹ s⁻¹
CCCCNc1ccc(C(=O)OCCN(CC)CC)cc1	Cholinesterase (BCHE, Homo sapiens, UniProt P06276)	–	–	concentration not given, Triton	–	efficacy	-108 ± 11%
COc1cc(Nc2ncc(F)c(Nc3ccc4c(n3)NC(=O)C(C)(C)O4)n2)cc(OC)c1OC	Leucine-rich repeat serine/threonine-protein kinase 2 (LRRK2, Homo sapiens, UniProt Q5S007)	KINOMEscan	–	10 µM	–	inhibition	97%
Cc1cc(N2CCNCC2)nc2ccccc12	Muscarinic acetylcholine receptor M4 (CHRM4, Homo sapiens, UniProt P08173)	ERK1/2 phosphorylation, agonist	CHO cells	–	–	Emax	< 10%
O=C(Nc1cnccc1Cl)N1CCN(Cc2ccc3c(c2)OC(F)(F)O3)CC1	Histamine H1 receptor (HRH1, Homo sapiens, UniProt P35367)	radioligand binding	–	10 µM, added: [3H]pyrilamine	–	inhibition of binding	4%
Cc1cccc(C)c1OCC(=O)N[C@@H](Cc1ccccc1)[C@H](O)C(=O)N1CSC(C)(C)[C@H]1C(=O)N[C@H]1c2ccccc2C[C@H]1O	Gag-Pol polyprotein, protease (gag-pol, Human immunodeficiency virus type 1 group M subtype B, UniProt P04585)	protein stability, GdnHCl denaturation, Trp fluorescence	HIV-1	2.5 µM	–	transition midpoint C1/2	3.4 M
CC(=O)N[C@@H](C)C(=O)N1CCC[C@H]1C(=O)N[C@@H](CC(C)C)C(=O)N[C@H](C(=O)N[C@@H](CCCNC(=N)N)C(=O)NCC(=O)N[C@@H](CO)C(=O)N[C@@H](CS)C(=O)N[C@@H](CCCNC(=N)N)C(=O)N[C@@H](CCCCN)C(=O)N[C@@H](CCCNC(=N)N)C(=O)N[C@@H](CC(N)=O)C(=O)N[C@@H](CCCNC(=N)N)C(=O)N[C@@H](CO)C(=O)N1CCC[C@H]1C(=O)N[C@@H](CCC(=O)O)C(=O)N[C@@H](CCCNC(=N)N)C(N)=O)[C@@H](C)O	WD repeat-containing protein 5 (WDR5, Homo sapiens, UniProt P61964)	binding, isothermal titration calorimetry	–	pH 7.0, 20 °C	–	ΔH	-33 kJ/mol
N#C[Se]Cc1cc(=O)oc2cc(O)ccc12	Carbonic anhydrase 12 (CA12, Homo sapiens, UniProt O43570)	stopped-flow CO2 hydration	–	–	relative to: Ki CA II over Ki CA XII	selectivity ratio	> 1070
CCN(C)C(=O)Oc1ccc(CCC(=O)N2CCN(Cc3ccccc3)CC2)cc1	Cholinesterase (BCHE, Equus caballus, UniProt P81908)	Ellman	equine serum BuChE	–	relative to: AChE IC50 over BuChE IC50	selectivity ratio	0.3
CC(=O)c1cnc2ccc(-c3cc(Cl)c(O)c(Cl)c3)nc2c1N[C@H]1CC[C@H](CN(C)C)CC1	Cholinesterase (BCHE, Homo sapiens, UniProt P06276)	–	–	concentration not given, Triton	–	efficacy	-49.3 ± 3.69%
COc1c(N2CC3CCCNC3C2)c(F)cc2c(=O)c(C(=O)OCc3cnc([N+](=O)[O-])s3)cn(C3CC3)c12.O=C(O)C(F)(F)F (stereo not drawn)	Oxygen-insensitive NAD(P)H nitroreductase (nfsB, Escherichia coli K-12, UniProt P38489)	substrate	–	added: NADH 100 µM	–	kcat	8.24 s⁻¹

Repeated from above:
Structure (SMILES)	target	test	test system	setting	scale	endpoint	result
CCNC(=O)NCCCOc1cccc(CN2CCCCC2)c1	Cholinesterase (BCHE, Homo sapiens, UniProt P06276)	–	–	concentration not given, Triton	–	efficacy	-59.5 ± 8.35%
CCN(C)C(=O)Oc1ccc(CCC(=O)N2CCc3ccccc3C2)cc1OC	Cholinesterase (BCHE, Equus caballus, UniProt P81908)	Ellman	equine serum BuChE	–	relative to: AChE IC50 over BuChE IC50	selectivity ratio	1.5
COc1cccc(OC)c1C(=O)N[C@@H]1C(=O)N2[C@@H]1SC(C)(C)[C@@H]2C(=O)O	Penicillin-binding protein 2B (Streptococcus pneumoniae, UniProt P0A3M6)	inhibitor	–	–	–	kinact/KI	780 ± 65 M⁻¹ s⁻¹
CCCCNc1ccc(C(=O)OCCN(CC)CC)cc1	Cholinesterase (BCHE, Homo sapiens, UniProt P06276)	–	–	concentration not given, Triton	–	efficacy	-108 ± 11%
COc1cc(Nc2ncc(F)c(Nc3ccc4c(n3)NC(=O)C(C)(C)O4)n2)cc(OC)c1OC	Leucine-rich repeat serine/threonine-protein kinase 2 (LRRK2, Homo sapiens, UniProt Q5S007)	KINOMEscan	–	10 µM	–	inhibition	97%
